Measured values from different studies.
“And” joins repeats or separate records; there may be more than shown. ± gives the spread as reported.

Structure (SMILES) | assay | system | conditions | how to read | endpoint | value
CCCCCOc1ccc(-c2ccc(-c3ccc(C(=O)N[C@H]4C[C@@H](O)[C@@H](OCC[N+](C)(C)C)NC(=O)[C@@H]5[C@@H](O)[C@@H](C)CN5C(=O)[C@H]([C@@H](C)O)NC(=O)[C@H]([C@H](O)[C@@H](O)c5ccc(O)cc5)NC(=O)[C@@H]5C[C@@H](O)CN5C(=O)[C@H]([C@@H](C)O)NC4=O)cc3)cc2)cc1 |  | adult ICU patients, mITT, serum | dose not given, Follow-up |  | aspartate aminotransferase | 16.5 U/L
C=CC(=O)Nc1cc(Nc2nccc(Nc3cc(Cl)c(F)cc3C(C)(C)O)n2)c(OC)cc1N1CC[C@@H](N(C)C)C1 | treatment-emergent adverse events | human | oral, 400 mg, phase I clinical trial |  | incidence of blood creatine phosphokinase increased | 60%
COc1ccc2nc3cc(Cl)ccc3c(Nc3cc(CN4CCCC4)c(O)c(CN4CCCC4)c3)c2n1 |  | mouse, blood | intraperitoneal, 28 mg/kg |  | red blood cell count | 9.88 10¹²/L
CC(C)C[C@H](NC(=O)[C@H](CCCCN)NC(=O)OCC1c2ccccc2-c2ccccc21)C(=O)N[C@H](C(=O)N[C@@H](Cc1ccccc1)C(=O)N[C@@H](Cc1ccccc1)C(=O)N[C@@H](CCCCN)C(=O)NCC(=O)N[C@@H](Cc1ccccc1)C(=O)N[C@@H](C)C(=O)N[C@@H](Cc1c[nH]c2ccccc12)C(=O)N[C@@H](CC(N)=O)C(=O)N[C@H](C(=O)N[C@H]1CSSC[C@@H](C(=O)N[C@@H](Cc2c[nH]cn2)C(=O)N[C@@H](CCCNC(=N)N)C(=O)N[C@@H](CCCNC(=N)N)C(=O)N[C@@H](C)C(=O)N[C@@H](CC(N)=O)C(N)=O)NC(=O)[C@H](C(C)C)NC(=O)[C@H](CCCNC(=N)N)NC(=O)[C@H](C(C)C)NC(=O)CNC(=O)[C@H](CC(N)=O)NC(=O)[C@H](CCCNC(=N)N)NC(=O)[C@H](Cc2ccc(O)cc2)NC(=O)[C@H](C(C)C)NC1=O)C(C)C)C(C)C |  | ICR mice, serum | intraperitoneal, 10 mg/kg, day 5 |  | calcium | 1.36 ± 0.03 mmol/L
CC(=O)c1c(C)c2cnc(Nc3ccc(C4CCN(CCS(C)(=O)=O)CC4)cn3)nc2n(C2CCCC2)c1=O |  | HR+/HER2- advanced breast cancer patients | oral, 100 mg |  | patients with any TEAE | 100%
C[C@]1(O)C[C@@](N)(c2ccc(-c3nc4n(c3-c3ccccc3)COc3ccncc3-4)cc2)C1 |  | human, advanced or metastatic solid tumours | once daily, dose escalation total, any grade |  | patients with Rash TEAE | 66.7%
CCCCCCCCCCCCCCCC(=O)N[C@@H](CCC(=O)NCCCC[C@H](NC(=O)[C@H](CC(=O)O)NC(=O)[C@H](CO)NC(=O)[C@@H](NC(=O)[C@H](Cc1ccccc1)NC(=O)[C@@H](NC(=O)CNC(=O)[C@H](CCC(N)=O)NC(=O)[C@H](CO)NC(=O)[C@@H](N)Cc1c[nH]cn1)[C@@H](C)O)[C@@H](C)O)C(=O)N[C@@H](CO)C(=O)N[C@@H](CCC(=O)O)C(=O)N[C@@H](Cc1ccc(O)cc1)C(=O)N[C@@H](CC(C)C)C(=O)N[C@@H](CC(=O)O)C(=O)N[C@@H](CO)C(=O)N[C@@H](CCC(=O)O)C(=O)N[C@@H](CCCNC(=N)N)C(=O)N[C@@H](C)C(=O)N[C@@H](CCCNC(=N)N)C(=O)N[C@@H](CC(=O)O)C(=O)N[C@@H](Cc1ccccc1)C(=O)N[C@H](C(=O)N[C@@H](C)C(=O)N[C@@H](Cc1c[nH]c2ccccc12)C(=O)N[C@@H](CC(C)C)C(=O)N[C@@H](CCC(=O)O)C(=O)N[C@@H](C)C(=O)NCC(=O)NCC(=O)O)C(C)C)C(=O)O | item: Hyperglycaemia | humans all renal groups | subcutaneous, 100 µg single dose |  | treatment-related adverse events | 2.7%
COc1ccnc(C(=O)N[C@H]2COC(=O)[C@H](Cc3ccccc3)[C@@H](OC(=O)C(C)C)[C@H](C)OC2=O)c1OCOC(=O)C(C)C |  | laying hens, female, fat | oral, 10.7 mg/kg dry feed, 7 days |  | share of total radioactive residue | 5 % TRR
O=S(=O)(Nc1ccccc1)c1ccc(NC(=S)Nc2ccccc2)cc1 | item: MO% | male mouse, blood | oral, 20 mg/kg daily, 14 days |  | blood cell fraction | 4.7%
Oc1ccc(Cl)c(-c2cc(Cl)c(Cl)cc2Cl)c1Cl | enantioselective gas chromatography | racemized sample | column temperature 160 °C |  | enantiomeric fraction | 0.5
[2H]C([2H])([18F])[C@]([2H])(N)C(=O)O | PET | athymic nude mice, U-87 MG, tumor | dose not given, 60 min post-injection |  | tissue uptake | 1.49 ± 0.33 %ID/cc
COc1cccc(Oc2ccccc2NC(=O)CNC(=O)c2cccc3ccccc23)c1 |  | esterase-deficient SCID mice, male | oral, 40 mg/kg/day, 14 days, toxicity study |  | serum chloride | 103 mmol/L and 109 mmol/L and 115 mmol/L
CO[C@H]1C[C@@H]2CC[C@@H](C)[C@@](O)(O2)C(=O)C(=O)N2CCCC[C@H]2C(=O)O[C@H]([C@H](C)C[C@@H]2CC[C@@H](OC(=O)NCCOCCOCCOCCOCCOCCOCCOCCOCCC(=O)N3CCc4cc(Cn5nc(-c6ccc7oc(N)nc7c6)c6c(N)ncnc65)ccc4C3)[C@H](OC)C2)C[C@@H](O)[C@H](C)/C=C(\C)[C@@H](O)[C@@H](OC)C(=O)[C@H](C)C[C@H](C)/C=C/C=C/C=C/1C | phase 1 dose escalation, item: nausea | advanced solid tumour patients | intravenous, 6 mg weekly, grade ≥3 |  | TRAE incidence | 0%
Cn1cncc1-c1c(F)cncc1NC(=O)c1c(N)nn2cc(F)cnc12 |  | human patients | oral, 150 mg twice daily, 4 days per 3 days, 21 days |  | upper gastrointestinal haemorrhage DLT | 0%
N=C(N)NCCC[C@@H](NC(=O)[C@@H](N)Cc1ccccc1)C(=O)N[C@@H](Cc1ccccc1)C(=O)N[C@@H](CCCCN)C(N)=O | LC-MS | human | 25 mg, 11.83 h |  | median amount excreted in urine | 1.43e+06 ng
CC(C)CC(=O)OC[C@H]1O[C@@](C#N)(c2ccc3c(N)ncnn23)[C@H](O)[C@@H]1O |  | Dogs plasma | 5 µM, 60 min |  | remaining compound | 83.6 ± 1.23%
O=C(Nc1ccccc1)C1CCN(C(=O)Oc2cccnc2)CC1 | psychotropic effects VAS | healthy women | 20 mg | reference: pre-dose baseline, direction not given | change in internal perception score | 0
[Cl][212Pb][Cl] |  | athymic mice, C4-2 xenograft, small intestine | intravenous, 2 h, 212Pb-labelled |  | tissue uptake | 2.99 ± 0.47 %ID/g
C[C@@H](NC(=O)N1C(=O)[C@H](Cc2ccnc(N)c2)[C@H]1C(=O)O)C1CCCCC1 |  | healthy adult Chinese volunteers | continuous intravenous infusion, 1.5 mg/kg/h, 5-day infusion, CTCAE 5.0 grading |  | incidence of albuminuria | 12.5%

Structure (SMILES) | assay | system | conditions | how to read | endpoint | value
S=c1oc(-c2ccccc2)nn1CN1CCN(Cc2ccccc2)CC1 |  | Wistar rat female | oral, 100 mg/kg, acute toxicity OECD 423 |  | serum creatinine | 0.6 ± 0.04 mg/dL
CN[C@@H](C)C(=O)N[C@H]1CN(S(=O)(=O)c2cccc(S(=O)(=O)N3CC[C@H]4CC[C@@H](C(=O)NC(c5ccccc5)c5ccccc5)N4C(=O)[C@@H](NC(=O)[C@H](C)NC)C3)c2)CC[C@H]2CC[C@@H](C(=O)NC(c3ccccc3)c3ccccc3)N2C1=O |  | patients advanced solid tumours | dose not given, all grades all doses |  | treatment-related facial nerve disorder | 10.7%
[O-][S+]1CCc2nc(N3CCC(c4ncc(Cl)cn4)CC3)nc(NC3(CO)CCC3)c21 (stereo not shown) | item: Headache | healthy male humans | 6 mg twice daily |  | adverse event incidence | 25%
O=C(C1CCOCC1)N1CC(=O)N2CCc3ccccc3[C@@H]2C1 |  | NMRI mouse, female, S. mansoni-infected, plasma | 200 mg/kg |  | AUC of (R)-enantiomer | 151 µM·h
COc1cc2c(Oc3ccc4[nH]c(C)cc4c3F)ccnc2cc1OCC1(N)CC1 | item: grade 1 or 2 mouth ulcer | paediatric high-risk refractory sarcoma | whole group |  | incidence of adverse event | 2.9%
CNC(=O)c1cc(Oc2ccc(NC(=O)Nc3cc(C(C)(C)C)nn3-c3ccc4ncccc4c3)c(F)c2)ccn1 | vision blurred, NCI CTC v3.0 | human patients | oral, all dose levels |  | related SAE | 2%
Cn1cc(-c2nc(N[C@@H]3CCCC[C@@H]3N)c(F)c3c2C(=O)NC3)cn1 | epistaxis | patients with relapsed or refractory AML | oral, 140 mg once daily |  | adverse events | 20%
C[C@H]1CN(C(=O)CC#N)[C@]12CCN(c1ncnc3[nH]ccc13)C2 |  | rat male | oral, 3 mg/kg repeated daily, 6 months, repeated-dose toxicity study |  | AUC at NOAEL | 1190 ng·h/mL
C[C@]1(CO)Cc2ncn(-c3ccc(C#N)c(Cl)c3)c2C(=O)O1 |  | Japanese subjects | 20 mg single dose |  | drug-related Acne incidence | 0%
CCc1ccc(CC/C=C/c2ccc3c(c2)C(=O)CC3)cc1 |  | Sprague-Dawley rat, female | oral, 450 mg/kg/day, 14 days |  | ALP serum activity | 136 U/L
NCCCC[C@@H]1NC(=O)[C@@H](Cc2c[nH]c3ccccc23)NC(=O)[C@H](c2ccccc2)NC(=O)[C@@H]2C[C@@H](OC(=O)NCCN)CN2C(=O)[C@H](Cc2ccccc2)NC(=O)[C@H](Cc2ccc(OCc3ccccc3)cc2)NC1=O |  | healthy human volunteers | 1950 µg twice daily |  | subjects with decreased appetite | 11%
C[C@H]1COCCN1c1nc(NCc2cccnc2C(F)(F)F)c2cccnc2n1 |  | conscious rat | intravenous, 30 mg/kg | reference: control | QRS change | 26.9%
C=CC(=O)N1CC[C@H](n2nc(C#Cc3cc(OC)cc(OC)c3)c3c(N)ncnc32)C1 |  | patients with advanced solid tumours | oral, dose not given, Vomiting, any grade, QD, added: phosphate-binding therapy |  | adverse drug reaction incidence | 20%
CN1CCN(S(=O)(=O)c2cc([N+](=O)[O-])ccc2N(CCOS(C)(=O)=O)CCOS(C)(=O)=O)CC1 |  | naive female NSG mice, plasma | intraperitoneal, 25 mg/kg |  | AUC(0-t) | 3.25 µM·h
O=C1Nc2cc3[nH]nc(-c4ccncc4)c3cc2CN1Cc1ccccc1 | item: increased GGT | patients with advanced solid tumours | intravenous, dose not given, both schedules pooled |  | patients with TEAE | 18%
Cn1nc(NS(C)(=O)=O)c2c(Cl)ccc(-n3c([C@H](Cc4cc(F)cc(F)c4)NC(=O)Cn4nc(C(F)F)c5c4C(F)(F)[C@@H]4C[C@H]54)nc4nc(OCCC(F)(F)F)ccc4c3=O)c21 | item: LDL cholesterol grade 3 increase | human | 200 mg once daily, powder in bottle |  | patients with laboratory abnormality | 0%
C#C[C@]1(CO)O[C@@H](n2cnc3c(N)nc(F)nc32)C[C@@H]1O |  | monkey | 29 days |  | NOAEL | 20 mg/kg/dose
COc1ncccc1-c1cnn2ccc(N3CCN(C(=O)OC(C)C)CC3)nc12 |  | rat, CCI mechanical allodynia model, brain | oral, 1 mg/kg, 240 min |  | drug concentration | 470 nM
